Measured values gathered from unrelated publications.
A part holds a random share of what one study measured. Positions count from the first letter of the parent shown.

Study 1
Target: Centromere-binding protein 1, full length, His-tagged (CBF1, Saccharomyces cerevisiae, UniProt P17106, residues 1-351)
Chain of UniProt P17106 (whole entry, looked up): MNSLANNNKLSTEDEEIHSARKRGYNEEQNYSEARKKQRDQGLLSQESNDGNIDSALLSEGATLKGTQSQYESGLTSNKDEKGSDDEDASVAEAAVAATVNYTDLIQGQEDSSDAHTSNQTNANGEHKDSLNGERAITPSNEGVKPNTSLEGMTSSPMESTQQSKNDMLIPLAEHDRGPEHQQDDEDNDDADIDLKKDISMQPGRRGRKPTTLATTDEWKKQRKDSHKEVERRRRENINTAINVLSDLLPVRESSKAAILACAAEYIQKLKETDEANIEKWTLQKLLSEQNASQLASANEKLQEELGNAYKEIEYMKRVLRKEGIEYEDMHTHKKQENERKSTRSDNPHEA
Technique: competition protein-binding microarray
Molecule type: double-stranded DNA, one strand shown
Medium: in vitro
Concentration: 2 µM
Setting: whole 60-bp probe, lowest competitor level
Added: Pho4 competitor, 0.05 µM
Direction: higher = stronger binding
All sequences stand within: … GTCTTGATTCGCTTGACGCTGCTG
With `AGGAACTTGAGCGTAAACGTGGACGTCTGCCTGTCG` the fluorescence intensity was 64.5 a.u.
The fluorescence intensity of `AGCAGTTTGAATTGTCATGTGCAAACAACCAGCAAT` is reported as 313 a.u.
`AAGTTGCTTCTTTGCCACGTGTTCCATTGAAGATTG` has a fluorescence intensity of 1890 a.u.
The fluorescence intensity of `GTAATTTCAATAGCTCGCGTGGCCGAATGGCAACGC` is reported as 85.7 a.u.
`CGGGGTTAAGTTTGTGCTGTGGGTGGCTTGCAGCAG` has a fluorescence intensity of 56.7 a.u.
For `ACTTGGCCCTATTCATCCGTGACGGGATCATATCTT`, the fluorescence intensity was 78.6 a.u.
`TCGGCTATCTGTGAGTACGTGCGGACTTCCAACGTC` has a fluorescence intensity of 72 a.u.
`AGAGACAATTGTTGCCTCGTGGCCGGGCTATTTACA` gave a fluorescence intensity of 106 a.u.

Study 2
Target: Sal-like protein 4, full length isoform B (SALL4, Homo sapiens, UniProt Q9UJQ4-2, residues 1-616)
Technique: universal PBM
Molecule type: double-stranded DNA, one strand shown
Medium: in vitro
Concentration: not given
Setting: 8-mer, flanks averaged, mean of replicates
Direction: higher = stronger binding
With `CCGGCTGC` the E-score was -0.424.
`AGACTGTA` has an E-score of 0.093.
For `AAGCTATG`, the E-score was 0.0995.
With `CCACGCGG` the E-score was -0.33.
With `AACAATTC` the E-score was 0.119.
With `AAGTCGTG` the E-score was -0.0251.
For `CTCTCCCC`, the E-score was -0.257.
`GAGGACTA` gave an E-score of 0.00559.

Further values, each from its own experiment
P1: PafA, mature enzyme, eGFP fusion (Elizabethkingia meningoseptica, UniProt Q9KJX5); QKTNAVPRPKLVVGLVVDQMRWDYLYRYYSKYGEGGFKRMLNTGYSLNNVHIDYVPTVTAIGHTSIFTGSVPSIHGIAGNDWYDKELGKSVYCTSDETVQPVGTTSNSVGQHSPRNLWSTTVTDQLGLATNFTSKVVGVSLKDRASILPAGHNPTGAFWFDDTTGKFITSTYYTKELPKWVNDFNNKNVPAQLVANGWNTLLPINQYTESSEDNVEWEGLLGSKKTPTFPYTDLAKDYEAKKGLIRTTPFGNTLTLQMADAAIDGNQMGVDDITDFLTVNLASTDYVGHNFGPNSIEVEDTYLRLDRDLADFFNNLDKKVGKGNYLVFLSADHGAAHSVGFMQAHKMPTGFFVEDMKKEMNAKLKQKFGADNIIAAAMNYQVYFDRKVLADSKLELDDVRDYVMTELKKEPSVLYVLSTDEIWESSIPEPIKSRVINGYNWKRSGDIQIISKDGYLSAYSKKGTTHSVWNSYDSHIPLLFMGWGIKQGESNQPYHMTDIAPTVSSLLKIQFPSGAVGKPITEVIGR
Under “oxyanion analog dissociation constant”, `P1 L364V` is recorded as 972 nM (vanadate, free oxyanion; microfluidic competitive inhibition; in vitro, cell-free expressed; not given, derived from inhibition constants, unchanged parent 676 nM; lower = stronger binding).
For `PhoQ, residues 284 288 289 292 302 303 TTSMTC`, the fold induction was 1.27 (PhoP, residues 12 14 15 18 19 NQAHL (Escherichia coli, UniProt P23836); Sort-seq, refers to: YFP reporter; E. coli; PhoQ-PhoP variant library, added: 10 µM Mg2+; baseline: high Mg2+ state, higher = stronger signaling).

Some of these lines once more (study 1):
The fluorescence intensity of `AGCAGTTTGAATTGTCATGTGCAAACAACCAGCAAT` is reported as 313 a.u.
`AAGTTGCTTCTTTGCCACGTGTTCCATTGAAGATTG` has a fluorescence intensity of 1890 a.u.
The fluorescence intensity of `GTAATTTCAATAGCTCGCGTGGCCGAATGGCAACGC` is reported as 85.7 a.u.
